Results pooled from the literature.
Parts stem from different laboratories: compare values within a part only. Changes are numbered by the printed parent chain.

Block 1
Target: Ras GTPase-activating protein-binding protein 1, RRM domain (G3BP1, Homo sapiens, UniProt Q13283)
UniProt Q13283, sequence (whole entry, looked up): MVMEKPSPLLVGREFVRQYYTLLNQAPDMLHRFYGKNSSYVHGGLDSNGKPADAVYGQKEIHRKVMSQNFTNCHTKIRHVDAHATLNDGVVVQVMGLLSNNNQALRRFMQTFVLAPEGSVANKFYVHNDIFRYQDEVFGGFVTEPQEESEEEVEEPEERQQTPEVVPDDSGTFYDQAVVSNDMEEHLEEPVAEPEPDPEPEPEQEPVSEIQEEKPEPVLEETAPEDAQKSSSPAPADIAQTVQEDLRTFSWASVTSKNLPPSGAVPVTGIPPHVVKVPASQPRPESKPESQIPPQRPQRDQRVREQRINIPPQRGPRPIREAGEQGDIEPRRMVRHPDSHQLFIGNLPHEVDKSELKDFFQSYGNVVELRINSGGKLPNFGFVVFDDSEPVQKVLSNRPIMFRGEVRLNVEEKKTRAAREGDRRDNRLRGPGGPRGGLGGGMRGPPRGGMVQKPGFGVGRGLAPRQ
Method: RNA Bind-n-Seq
Form: RNA
Matrix: in vitro
Tested at: 1 µM
Setting: whole 134-nt RNA, ends assumed
With: 150 mM KCl
Relative to: input library
Reading: higher = stronger binding
All sequences stand within: GGGAGUUCUACAGUCCGACGAUC … UGGAAUUCUCGGGUGUCAAGG
Strand | log2 enrichment
UCCUGUGCUACACAUCGUAUGUACCGAAUCGGGCCCCCGGGGCCCCCGGGCCCCCGGGGAAAGUAUUAUGUUACGCCGUUCGGAUCUGCA | -0.602
UAACUUGAGAGGAGGAUCUGAUGGAUAUGGCAGUGGACGUGGAUUUGGGGAUGGCUAUAAUGGGUAUGGAGGAGGACCUGGAGGUGGCAA | 0.068
UUUCCAAGAAGUGCACUGAAAAUGACAUCCGAGUCAUGUUCUCUUCGUUUGGACAGAUUGAAGAAUGCCGGAUAUUGCGGGGACCUGAUG | -0.155
CUGUGCUACACAUCGUAUGUACCGAAUCGGGGUUUUUUUGGGGAAAGGGGAAAAAAAGGGGAAAGUAUUAUGUUACGCCGUUCGGAUCUG | 0.328
GUCCUGUGCUACACAUCGUAUGUACCGAAUCGGGAAAAAGGGGAAAAAGGGAAAAAGGGAAAGUAUUAUGUUACGCCGUUCGGAUCUGCA | 0.188
UCAAGUCCUGUGCUACACAUCGUAUGUACCGAAUCGGUGGAAAAAGGUUUUUGGAAAGUAUUAUGUUACGCCGUUCGGAUCUGCACUUCC | -0.155
CCUGUGCUACACAUCGUAUGUACCGAAUCGGGUUUUUUUGGGUUUUUUUGGGUUUUUGGGAAAGUAUUAUGUUACGCCGUUCGGAUCUGC | -0.216
GCUCGCCCGAGCUCAGAGGUGAUCAAAGACGCCAACUUGUACAUCAGCGGGCUCCCGCGGACCAUGACCCAGAAGGACGUAGAAGACAUG | -0.311
UCCUGUGCUACACAUCGUAUGUACCGAAUCGGGGUUUGGGGUUUGGGGAAAAAAAGGGGAAAGUAUUAUGUUACGCCGUUCGGAUCUGCA | 1.05

Block 2
Target: RNA binding protein fox-1 homolog 2, RRM domain, GST-SBP tag (RBFOX2, Homo sapiens, UniProt O43251-10, residues 100-194)
Method: RNA Bind-n-Seq
Form: RNA
Matrix: in vitro
Tested at: 365 nM
Setting: natural RNA segment, single round, ends assumed
Relative to: no-protein control
Reading: higher = stronger binding
All sequences stand within: GGGAGUUCUACAGUCCGACGAUC … UGGAAUUCUCGGGUGCCAA
Strand | RBNS enrichment (R)
CUACUCCCCACUCCUGCCACCAAGCACAUCCGGUCUAGGGGUUCCUCACUCUCUUUCAUUUAGCUGCCAGUCAUUUUAUGAAAAUGAAGUGCUUCUAAGUAUUUCCUUAA | 0.483
GUGAAGGAGCUUGCUGGAUAAAGGCACGAUGGGGCUUUUUAUGGAGUAAAGUUUCUUGAUUUCAACUAUAAUGAAUACUUUGCCUGUCUAGUUAGUACUGGCAGGACAUA | 0.493
CAAAUUAUCUGGGCUUCAGAAGCCAUCCCUUUGCUAUGCUUGACACCAAACUCAGUCACUCCACCUCAGUCAUGACCUGAUAUAAAAGCCGUGCUAGUUUCCCGAGUUCA | 0.527
AGAUGCAGAAUGGGAAAGACAGAGGUUAGCAGAGGAGCCGGACACAGAGGAAGCUCAGGCACAGAGGACGAGGAGCAAGCUGGCGCCGACAUGGCGAAGGCAAGGUCUUC | 1.34
UUUUCCCCCAUAAUUUAAAGUUCAGUCAUUAAGCUGUUACAUCCCUCUGAAGUUGAUUGUCUUAUAUUCCCGCUAUGAGAUAUCUCAAAGAUUCUUAAUCAAGAGUUUCA | 0.61

Block 3
Target: Interferon regulatory factor 5, full length, phosphomimetic (IRF5, Homo sapiens, UniProt Q13568-2, residues 1-514, S451D/S453D/S456D/S462D)
Method: protein-binding microarray
Form: double-stranded DNA, one strand shown
Matrix: in vitro
Tested at: 940 nM top
Setting: 60-bp whole probe
With: salmon DNA 0.4 mg/ml
Relative to: random background probes
Reading: higher = stronger binding
All sequences stand within: GCCTAGCAC … GTCTTGATTCGCTTGACGCTGCTG
Strand | fitted relative affinity
TTCGGTATCGACACTGGGTTAGTGCTA | 4.79 z-score
GACGAACTGGGGACTGGACACGTGCTA | -0.278 z-score
GCCATTATGAGTCTTGAAGAGTGCTAG | -0.398 z-score
ACCGATTTCCTTCACCCACTGTGCTAG | 1.06 z-score
GCCGGTATCGGGTATCGGGACGTGCTA | 6.26 z-score
GACGATTTCAGTATCTAGACGTGCTAG | 1.01 z-score
TGAAAATTCTAATTAGAATTGTGCTAG | -0.454 z-score
GACGAACTGGGGTTTGGAGACGTGCTA | 0.223 z-score
ATTGTTTCCTTCCTCTTTTAGTGCTAG | 2.14 z-score
TTAGATTTCAGACTGGACTAGTGCTAG | -0.204 z-score
GGCGGACTGCTTATCCTGACGTGCTAG | -0.538 z-score
GACGACATCGGGTTTCGAGACGTGCTA | 1.6 z-score
GACGGTTTCCTTCTCCTGGCGTGCTAG | 2.28 z-score
TCCATGACCTACCCTGCGTTGTGCTAG | -0.209 z-score
GACGGTTCCTGTTTCGGGACGTGCTAG | 1.97 z-score
TGTGGACCTTGGGAGATTTCGTGCTAG | -0.31 z-score

Block 4
Target: CCND2, cyclin fold, Cln2 fusion (human)
Method: yeast growth competition, sequencing
Matrix: yeast
Setting: weak parent motif
Relative to: not given
Reading: higher = stronger binding
Starting sequence: RBL1 docking peptide (human); GSAKRRLFGEDPP; partner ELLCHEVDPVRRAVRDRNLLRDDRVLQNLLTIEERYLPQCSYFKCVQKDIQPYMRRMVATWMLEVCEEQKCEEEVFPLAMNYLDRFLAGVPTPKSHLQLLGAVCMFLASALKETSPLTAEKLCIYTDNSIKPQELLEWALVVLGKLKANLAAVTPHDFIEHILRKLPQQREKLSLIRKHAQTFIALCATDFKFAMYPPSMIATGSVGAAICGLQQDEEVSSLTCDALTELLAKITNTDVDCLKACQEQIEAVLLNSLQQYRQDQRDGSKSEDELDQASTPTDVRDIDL
Variant | normalised enrichment score
L7E | -0.0931
P13C | 0.152
L7H | 0.124
P12G | 0.176
K4C | 0.099
P13D | 0.441
P13L | 0.837
R5G | 0.0403
R5M | 0.174
A3Y | 0.0569
D11V | 0.407
R5N | 0.346
D11Y | 0.387

Repeated from above (block 4):
Variant | normalised enrichment score
P13L | 0.837
P13C | 0.152
R5M | 0.174
D11V | 0.407
D11Y | 0.387
